Measured values pooled from the literature.
Each line is one published result; not all experiments were run side by side.

CSCC[C@H](NC(=O)COCCOCCNC(=O)COCCOCCNC(=O)CC[C@H](NC(=O)CCCCCCCCCCCCCCCCC(=O)O)C(=O)O)C(=O)N[C@H]1CSSC[C@@H](C(=O)NCC(=O)N[C@@H](CO)C(=O)NCC(=O)N[C@@H](CO)C(=O)N[C@@H](CC(=O)O)C(=O)N[C@@H](Cc2ccc(O)cc2)C(=O)N[C@@H](CCCCN)C(=O)N[C@@H](CC(=O)O)C(=O)N[C@@H](CC(=O)O)C(=O)N[C@@H](CC(=O)O)C(=O)N[C@@H](CC(=O)O)C(=O)N[C@@H](CCCCN)C(N)=O)NC(=O)[C@H](Cc2ccccc2)NC(=O)[C@@H]2CCCN2C(=O)[C@H](Cc2c[nH]c3ccccc23)NC(=O)[C@H](CC(C)C)NC(=O)[C@H](CCSC)NC(=O)[C@H](Cc2c[nH]cn2)NC(=O)[C@H](Cc2ccccc2)NC(=O)[C@H](Cc2c[nH]cn2)NC(=O)[C@H]([C@@H](C)O)NC(=O)[C@H](Cc2ccccc2)NC1=O
plasma stability (human plasma; 5 h, 37 °C): stable

COC(=O)N[C@H](C(=O)N1CCC[C@H]1c1nc(-c2ccc3c(c2)O[C@@H](c2ccccc2)n2c-3cc3cc(-c4c[nH]c([C@@H]5CCCN5C(=O)[C@@H](NC(=O)OC)C(C)C)n4)ccc32)c[nH]1)C(C)C
plasma stability (human K2EDTA plasma; -20 °C): ≥ 21 months

CC(=O)c1c(C)c2cnc(Nc3ccc(C4CCN(CCS(C)(=O)=O)CC4)cn3)nc2n(C2CCCC2)c1=O
plasma stability t1/2 (rat plasma): > 6.67 h

OCCc1ccc(O)c(O)c1
plasma concentration (human plasma; median): 0.0177 µM

Clc1ccc(C(c2ccccc2Cl)C(Cl)Cl)cc1 (centres unmarked)
plasma concentration (human, plasma; sixteen days after treatment end): 12000 ng/mL

O=C(O)Cc1ccccc1
plasma concentration (human plasma; mean, both sexes): 38.1 µM

N#C[C@@]1(n2ccc(N)nc2=O)O[C@H](CO)[C@@H](O)[C@H]1O
plasma stability time (human plasma; 10 µM, 37 °C): ≥ 2 h

C=C(C)[C@@H]1CC[C@]2(C(=O)OC)CC[C@]3(C)[C@H](CC[C@@H]4[C@@]5(C)CC[C@H](O[C@@H]6O[C@H](CO)[C@@H](O[C@@H]7O[C@@H](C)[C@H](O)[C@@H](O)[C@H]7O)[C@H](O)[C@H]6O[C@@H]6O[C@@H](C)[C@H](O)[C@@H](O)[C@H]6O)C(C)(C)[C@@H]5CC[C@]43C)[C@@H]12
plasma stability (mouse plasma): unstable

CNc1cc[n+](CC(=O)Nc2ccc3c(c2)ncn3-c2c(C)noc2C)cc1.O=C[O-]
plasma stability (rat plasma): stable

CC[C@H](C)CCCCC(=O)N[C@@H](CCN)C(=O)N[C@H](C(=O)N[C@@H](CCN)C(=O)N[C@H]1CCNC(=O)[C@H]([C@@H](C)O)NC(=O)[C@H](CCN)NC(=O)[C@H](CCN)NC(=O)[C@H](CC(C)C)NC(=O)[C@@H](Cc2ccccc2)NC(=O)[C@H](CCN)NC1=O)[C@@H](C)O
plasma concentration at 6 h (critically ill patients, plasma; intravenous, dose not given, 6 h, steady state, Low AUC group, median): 1180 ng/mL

CSCC[C@H](NC(=O)COCCOCCNC(=O)COCCOCCNC(=O)CC[C@H](NC(=O)CCCCCCCCCCCCCCCCC(=O)O)C(=O)O)C(=O)N[C@H]1CSSC[C@@H](C(N)=O)NC(=O)[C@H](Cc2ccccc2)NC(=O)[C@@H]2CCCN2C(=O)[C@H](Cc2c[nH]c3ccccc23)NC(=O)[C@H](CC(C)C)NC(=O)[C@H](CCSC)NC(=O)[C@H](Cc2c[nH]cn2)NC(=O)[C@H](Cc2ccccc2)NC(=O)[C@H](Cc2c[nH]cn2)NC(=O)[C@H]([C@@H](C)O)NC(=O)[C@H](Cc2ccccc2)NC1=O
plasma stability (human plasma; 5 h, 37 °C): stable

Repeated from above:
N#C[C@@]1(n2ccc(N)nc2=O)O[C@H](CO)[C@@H](O)[C@H]1O
plasma stability time (human plasma; 10 µM, 37 °C): ≥ 2 h
